Published values pooled from the literature.

With NC(=O)[C@@H]1CC(F)(F)CN1C(=O)c1ccc(N2CC(F)(F)C2)c(OCC2CC2)n1 the unbound fraction was 0.0843 (equilibrium dialysis; human plasma).
Cc1ccc2[nH]c(=S)n(Cc3cccnc3)c(=O)c2c1 gave an unbound fraction of 0.035 (human plasma; 10 µM).
The unbound fraction of CC(=O)CC(c1ccccc1)c1c(O)c2ccccc2oc1=O (stereo not shown) is reported as 0.0062 (plasma protein binding; rat plasma).
For Cc1nc([C@@](C)(CC2CC2)NC(=O)c2cc(OCC(F)(F)F)c(C3CC3)cn2)no1, the unbound fraction was 0.009 (equilibrium dialysis; mouse plasma).
CNCC[C@@H](Oc1ccccc1C)c1ccccc1 gave an IC50 of 6.31 µM (Plasmodium falciparum; 7G8).
The unbound fraction of Cc1nonc1Cn1nnc2c(N3CC[C@H](O)C3)nc(C(C)(C)C)nc21 is reported as 0.0088 (equilibrium dialysis; mouse plasma).
The unbound fraction of CC(=O)c1c(C)c2cnc(Nc3ccc(C4CCN(CCS(C)(=O)=O)CC4)cn3)nc2n(C2CCCC2)c1=O is reported as 0.04 (dogs plasma).
The unbound fraction of C/C=C1/CN2CC[C@]34C(=C(C(=O)OC)[C@H]1C[C@H]23)Nc1ccccc14 is reported as 0.18 (rat plasma; 1 µM, 6 h).
N=C(CC(O)c1cc2c(F)cc(F)cc2c2cc(C(F)(F)F)ccc12)Nc1ccc(F)c(F)c1 (stereo not shown) has an unbound fraction of 0.0022 (equilibrium dialysis; diluted human plasma; 100 ng/mL, 24 h, plasma dilution 1:10).
CC(C)NCC(O)COc1cccc2ccccc12 (stereo not shown) gave an unbound fraction of 0.133 (plasma protein binding; dog plasma).
The unbound fraction of CC(C)CC(=O)OC[C@H]1O[C@@](C#N)(c2ccc3c(N)ncnn23)[C@H](O)[C@@H]1O is reported as 0.137 (plasma protein binding; mouse plasma; 0.9 µM).
For CCCN(CCC)[C@H]1CCc2c(F)ccc(O)c2C1, the IC50 was 0.631 µM (Plasmodium falciparum; 7G8).
N=C(CC(O)c1cc2c(F)cc(F)cc2c2cc(C(F)(F)F)ccc12)Nc1ccc(Br)cc1 (stereo not shown) gave an unbound fraction of 0.0009 (equilibrium dialysis; diluted human plasma; 100 ng/mL, 24 h, plasma dilution 1:10).
